Results collected from several papers.
Each line is one published result; not all experiments were run side by side. Several values in a cell are separate wells, animals, samples, runs or records. ± marks the error that the study gave.
Tumor necrosis factor receptor superfamily member 1A extracellular domain: Tumor necrosis factor receptor superfamily member 1A, extracellular domain (Homo sapiens, UniProt P19438)
Sequence of UniProt P19438 (whole entry, looked up): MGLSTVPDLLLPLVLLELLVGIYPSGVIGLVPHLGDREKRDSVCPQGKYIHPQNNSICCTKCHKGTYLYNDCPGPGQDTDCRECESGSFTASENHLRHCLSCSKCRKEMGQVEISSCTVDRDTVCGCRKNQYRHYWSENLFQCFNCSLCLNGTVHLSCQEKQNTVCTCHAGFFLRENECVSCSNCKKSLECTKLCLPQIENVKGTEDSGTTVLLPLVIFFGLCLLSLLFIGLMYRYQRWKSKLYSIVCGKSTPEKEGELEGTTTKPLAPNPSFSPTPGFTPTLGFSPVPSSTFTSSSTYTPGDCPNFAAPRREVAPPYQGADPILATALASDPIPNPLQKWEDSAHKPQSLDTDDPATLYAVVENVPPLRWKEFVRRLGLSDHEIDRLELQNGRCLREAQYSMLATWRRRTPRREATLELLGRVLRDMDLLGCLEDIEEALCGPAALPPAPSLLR
GATD3: Glutamine amidotransferase-like class 1 domain-containing protein 3, mitochondrial (GATD3, Homo sapiens, UniProt P0DPI2)
Sequence of UniProt P0DPI2 (whole entry, looked up): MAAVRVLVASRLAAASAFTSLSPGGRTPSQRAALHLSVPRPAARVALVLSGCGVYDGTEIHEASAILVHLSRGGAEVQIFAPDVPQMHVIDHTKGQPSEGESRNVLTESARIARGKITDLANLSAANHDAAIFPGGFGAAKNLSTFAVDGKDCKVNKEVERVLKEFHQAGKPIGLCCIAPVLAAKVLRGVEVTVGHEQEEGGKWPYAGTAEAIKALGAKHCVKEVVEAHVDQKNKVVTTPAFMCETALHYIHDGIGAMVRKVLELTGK
CA5B: Carbonic anhydrase 5B, mitochondrial (CA5B, Homo sapiens, UniProt Q9Y2D0)
Sequence of UniProt Q9Y2D0 (whole entry, looked up): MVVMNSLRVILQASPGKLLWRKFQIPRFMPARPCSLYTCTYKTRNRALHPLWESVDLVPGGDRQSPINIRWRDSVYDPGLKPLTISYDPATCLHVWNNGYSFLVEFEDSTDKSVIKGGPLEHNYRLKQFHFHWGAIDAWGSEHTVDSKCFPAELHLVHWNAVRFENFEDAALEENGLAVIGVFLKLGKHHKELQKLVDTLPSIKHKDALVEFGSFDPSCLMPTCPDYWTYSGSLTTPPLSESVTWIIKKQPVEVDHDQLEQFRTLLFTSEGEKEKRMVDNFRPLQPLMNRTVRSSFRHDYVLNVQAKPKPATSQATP
USP5 ZnF-UBD domain: Ubiquitin carboxyl-terminal hydrolase 5, ZnF-UBD domain (USP5, Homo sapiens, UniProt P45974)
Sequence of UniProt P45974 (whole entry, looked up): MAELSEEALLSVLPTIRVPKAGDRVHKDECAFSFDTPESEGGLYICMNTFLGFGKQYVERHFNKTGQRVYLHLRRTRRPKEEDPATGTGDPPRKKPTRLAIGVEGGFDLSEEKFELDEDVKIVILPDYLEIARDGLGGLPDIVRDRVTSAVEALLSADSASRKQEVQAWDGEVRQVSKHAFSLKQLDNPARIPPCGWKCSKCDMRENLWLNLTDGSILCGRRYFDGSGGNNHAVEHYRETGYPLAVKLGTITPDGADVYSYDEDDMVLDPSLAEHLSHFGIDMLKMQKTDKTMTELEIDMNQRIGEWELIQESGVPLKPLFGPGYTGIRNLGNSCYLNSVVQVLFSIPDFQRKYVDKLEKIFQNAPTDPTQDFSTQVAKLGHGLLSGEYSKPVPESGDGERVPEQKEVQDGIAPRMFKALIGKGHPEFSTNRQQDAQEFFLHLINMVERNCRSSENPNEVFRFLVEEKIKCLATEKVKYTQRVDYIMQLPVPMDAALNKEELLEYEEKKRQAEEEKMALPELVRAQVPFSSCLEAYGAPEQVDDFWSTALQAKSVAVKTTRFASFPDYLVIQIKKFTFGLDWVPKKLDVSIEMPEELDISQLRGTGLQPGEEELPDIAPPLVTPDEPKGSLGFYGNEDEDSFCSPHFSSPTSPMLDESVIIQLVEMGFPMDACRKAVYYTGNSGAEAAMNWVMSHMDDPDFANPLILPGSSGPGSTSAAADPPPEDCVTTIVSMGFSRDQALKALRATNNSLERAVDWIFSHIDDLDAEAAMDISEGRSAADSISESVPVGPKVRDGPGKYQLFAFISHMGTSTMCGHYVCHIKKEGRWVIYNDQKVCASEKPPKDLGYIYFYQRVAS
SCN8A C-terminal domain: Sodium channel protein type 8 subunit alpha, C-terminal domain (SCN8A, Homo sapiens, UniProt Q9UQD0)
Sequence of UniProt P53779 (whole entry, looked up): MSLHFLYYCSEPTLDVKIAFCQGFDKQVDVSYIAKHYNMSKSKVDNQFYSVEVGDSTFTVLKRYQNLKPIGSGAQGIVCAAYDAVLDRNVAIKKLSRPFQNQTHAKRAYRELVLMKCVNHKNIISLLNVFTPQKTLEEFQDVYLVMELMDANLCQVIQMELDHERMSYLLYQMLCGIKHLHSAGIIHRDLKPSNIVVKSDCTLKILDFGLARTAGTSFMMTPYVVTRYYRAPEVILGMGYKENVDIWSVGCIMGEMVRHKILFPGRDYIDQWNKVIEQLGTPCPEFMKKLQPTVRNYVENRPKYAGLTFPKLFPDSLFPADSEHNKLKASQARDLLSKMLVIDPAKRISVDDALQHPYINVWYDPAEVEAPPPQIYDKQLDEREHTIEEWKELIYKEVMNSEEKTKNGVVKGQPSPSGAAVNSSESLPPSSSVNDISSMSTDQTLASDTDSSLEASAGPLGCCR
Sequence of UniProt Q9UQD0 (whole entry, looked up): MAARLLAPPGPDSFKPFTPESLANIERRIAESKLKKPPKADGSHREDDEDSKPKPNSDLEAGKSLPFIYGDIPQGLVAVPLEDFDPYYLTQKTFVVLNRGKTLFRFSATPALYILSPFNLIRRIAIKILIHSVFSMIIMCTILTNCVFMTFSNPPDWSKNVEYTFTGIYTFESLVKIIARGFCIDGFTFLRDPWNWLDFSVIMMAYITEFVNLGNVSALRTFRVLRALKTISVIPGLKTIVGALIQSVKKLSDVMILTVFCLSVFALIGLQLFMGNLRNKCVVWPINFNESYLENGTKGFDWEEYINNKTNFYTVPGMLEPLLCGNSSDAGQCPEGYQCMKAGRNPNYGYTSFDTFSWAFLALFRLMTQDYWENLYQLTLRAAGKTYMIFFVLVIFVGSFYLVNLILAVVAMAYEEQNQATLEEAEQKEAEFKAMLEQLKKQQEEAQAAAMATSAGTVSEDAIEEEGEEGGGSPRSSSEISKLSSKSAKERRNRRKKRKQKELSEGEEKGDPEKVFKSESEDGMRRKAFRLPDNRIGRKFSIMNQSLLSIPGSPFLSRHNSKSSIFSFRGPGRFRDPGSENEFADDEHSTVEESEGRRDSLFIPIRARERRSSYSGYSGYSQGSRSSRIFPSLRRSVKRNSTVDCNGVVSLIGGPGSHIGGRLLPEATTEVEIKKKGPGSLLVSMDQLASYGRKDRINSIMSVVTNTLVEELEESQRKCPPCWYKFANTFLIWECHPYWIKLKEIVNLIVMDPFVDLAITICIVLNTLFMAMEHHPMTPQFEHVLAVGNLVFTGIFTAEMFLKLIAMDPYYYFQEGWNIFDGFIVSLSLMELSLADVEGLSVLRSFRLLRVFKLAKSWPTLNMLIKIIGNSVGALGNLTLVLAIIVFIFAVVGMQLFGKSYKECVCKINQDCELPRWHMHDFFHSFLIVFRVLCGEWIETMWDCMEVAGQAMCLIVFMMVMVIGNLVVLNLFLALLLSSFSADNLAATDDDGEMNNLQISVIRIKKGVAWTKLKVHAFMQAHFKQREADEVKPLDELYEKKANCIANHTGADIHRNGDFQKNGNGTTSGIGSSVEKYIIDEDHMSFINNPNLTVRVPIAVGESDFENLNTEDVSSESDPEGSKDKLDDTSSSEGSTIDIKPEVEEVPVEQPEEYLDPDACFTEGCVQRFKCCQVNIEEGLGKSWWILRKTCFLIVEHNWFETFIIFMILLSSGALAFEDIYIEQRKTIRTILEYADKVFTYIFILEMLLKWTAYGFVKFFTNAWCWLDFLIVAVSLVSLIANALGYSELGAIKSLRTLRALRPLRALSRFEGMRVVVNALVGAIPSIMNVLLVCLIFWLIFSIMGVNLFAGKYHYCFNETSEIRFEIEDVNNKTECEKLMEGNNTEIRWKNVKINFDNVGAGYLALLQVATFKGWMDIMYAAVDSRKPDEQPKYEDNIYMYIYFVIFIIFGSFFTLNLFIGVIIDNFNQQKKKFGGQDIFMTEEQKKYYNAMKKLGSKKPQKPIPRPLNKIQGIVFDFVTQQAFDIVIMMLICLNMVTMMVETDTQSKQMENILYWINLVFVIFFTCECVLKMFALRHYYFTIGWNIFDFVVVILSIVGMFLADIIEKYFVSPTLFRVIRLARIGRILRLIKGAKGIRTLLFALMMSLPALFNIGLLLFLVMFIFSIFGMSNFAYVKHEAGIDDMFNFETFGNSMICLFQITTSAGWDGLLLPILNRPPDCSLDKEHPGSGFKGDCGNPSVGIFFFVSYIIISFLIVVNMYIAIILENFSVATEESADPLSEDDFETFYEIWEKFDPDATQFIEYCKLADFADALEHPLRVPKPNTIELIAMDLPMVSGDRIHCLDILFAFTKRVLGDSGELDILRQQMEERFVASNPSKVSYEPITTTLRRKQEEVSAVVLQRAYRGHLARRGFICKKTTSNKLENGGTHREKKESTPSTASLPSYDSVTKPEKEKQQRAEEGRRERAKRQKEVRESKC
Sequence of UniProt Q9KCC6 (whole entry, looked up): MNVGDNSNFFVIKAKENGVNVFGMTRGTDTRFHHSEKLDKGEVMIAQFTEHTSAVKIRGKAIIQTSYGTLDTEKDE
Sequence of UniProt Q96F10 (whole entry, looked up): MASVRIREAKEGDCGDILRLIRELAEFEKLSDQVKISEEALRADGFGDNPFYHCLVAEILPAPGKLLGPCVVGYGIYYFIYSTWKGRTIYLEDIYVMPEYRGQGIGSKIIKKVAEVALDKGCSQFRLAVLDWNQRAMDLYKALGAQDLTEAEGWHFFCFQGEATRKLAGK
Sequence of UniProt P45983 (whole entry, looked up): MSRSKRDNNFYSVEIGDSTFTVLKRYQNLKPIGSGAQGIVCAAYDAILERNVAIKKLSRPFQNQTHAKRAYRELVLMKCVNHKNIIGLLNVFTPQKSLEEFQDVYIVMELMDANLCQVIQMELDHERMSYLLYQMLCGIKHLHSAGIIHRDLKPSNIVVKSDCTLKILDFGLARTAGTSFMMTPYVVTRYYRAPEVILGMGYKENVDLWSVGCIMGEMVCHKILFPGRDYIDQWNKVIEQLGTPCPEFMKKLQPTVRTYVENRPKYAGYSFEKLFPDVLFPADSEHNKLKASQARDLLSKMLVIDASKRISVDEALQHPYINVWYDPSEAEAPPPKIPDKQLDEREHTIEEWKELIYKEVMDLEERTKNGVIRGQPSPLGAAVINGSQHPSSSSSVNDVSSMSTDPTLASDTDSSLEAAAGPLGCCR

| SMILES | target | assay | system | conditions | Kd |
| --- | --- | --- | --- | --- | --- |
| O=C(O)c1cc(-c2ccc(F)cc2)cc(CO)n1 | Tumor necrosis factor receptor superfamily member 1A extracellular domain | SPR OneStep | – | immobilized target | 1080 ± 130 µM |
| Cn1cc(CNCC2CCN(c3ncc(C(=O)NO)cn3)CC2)c2ccccc21 | GATD3 | inhibitor, competition pulldown | SW620 and MV4-11 lysate | 1 h | > 30.2 µM |
| NS(=O)(=O)c1ccccc1 | CA5B | thermal shift | – | pH 7.0, 25 °C | 12.5 µM |
| N[C@H](CC(=O)O)C(=O)O | Methyl-accepting chemotaxis protein, ligand-binding domain (Pectobacterium atrosepticum, UniProt Q6D6I9) | isothermal titration calorimetry | – | pH 6.0, 25 °C, ligand-binding domain | 23 ± 2 µM |
| OC[C@H]1O[C@@](CO)(O[C@H]2O[C@H](CO)[C@@H](O)[C@H](O)[C@H]2O)[C@@H](O)[C@@H]1O | uncharacterized protein (Streptococcus pneumoniae, UniProt A0A0H2ZPW1) | binder, isothermal titration calorimetry | – | 25 °C, wild type | > 300 µM |
| O=C(O)CCC(=O)c1ccc(S(=O)(=O)N2CCCC2)cc1 | USP5 ZnF-UBD domain | – | – | – | 117 µM |
| O=P([O-])([O-])O.[Na+].[Na+] | SAR11_1179 protein (Candidatus Pelagibacter ubique) | binding, isothermal titration calorimetry | – | one-set-of-sites model | 0.107 µM and 0.163 µM and 0.128 µM |
| Cn1cc(-c2ccc(S(=O)(=O)n3ccc(/C=C/C(=O)Nc4ccccc4N)c3)cc2)cn1 | GATD3 | inhibitor, competition pulldown | SW620 and MV4-11 lysate | 1 h | > 30.2 µM |
| COc1ccc(C=C2SC(=O)N(C(C)C(=O)O)C2=O)cc1 (stereo not shown) | USP5 ZnF-UBD domain | – | – | – | > 1000 µM |
| CC(=O)Nc1ccc(C(=O)Nc2ccccc2N)cc1 | GATD3 | inhibitor, competition pulldown | SW620 and MV4-11 lysate | 1 h | > 30.2 µM |
| O=C(Nc1nnc(-c2ccncc2)s1)C(F)(F)I | MAPK10 (Homo sapiens, UniProt P53779) | – | – | pH 7.4 | 6.49 µM and 19 µM |
| C=CC(=O)N1CCN(c2nc(OC[C@@H]3CCCN3C)nc3c(F)c(-c4nc(N)cc(C)c4C(F)(F)F)c(Cl)cc23)[C@@H](C)C1 | GTPase KRas, GDP-bound (KRAS, Homo sapiens, UniProt P01116, Q61R) | SPR | – | – | 0.469 ± 0.014 µM |
| O=C(CN(Cc1ccccc1)S(=O)(=O)c1ccc(F)cc1)Nc1cccc(Cl)c1Cl | SCN8A C-terminal domain | binding, surface plasmon resonance | – | – | 7.73 ± 0.48 µM |
| O=C(O)CCn1c(=O)oc2ccccc21 | USP5 ZnF-UBD domain | – | – | – | > 1000 µM |
| Nc1cccc(-c2ccnc(C(=O)O)c2)c1 | Tumor necrosis factor receptor superfamily member 1A extracellular domain | binding, SPR | – | irregular sensorgram | 690 ± 30 µM |
| O=C(O)CCC(=O)Nc1cccc2ccccc12 | USP5 ZnF-UBD domain | – | – | – | > 1000 µM |
| CC(C)(COP(=O)(O)OP(=O)(O)OC[C@H]1O[C@@H](n2cnc3c(N)ncnc32)[C@H](O)[C@@H]1OP(=O)(O)O)[C@@H](O)C(=O)NCCC(=O)NCCS | Thialysine N-epsilon-acetyltransferase (Homo sapiens, UniProt Q96F10) | competitor, competition MS pulldown | SW-620 cell lysate | together with: photo-immobilized beads | 8.12 µM |
| N[C@@H](Cc1c[nH]c2ccccc12)C(=O)O | Transcription attenuation protein MtrB (mtrB, Halalkalibacterium halodurans, UniProt Q9KCC6) | binding, ITC | – | – | 6.5 ± 1 µM |
| CCCC(CCC)C(=O)O | GATD3 | inhibitor, competition pulldown | SW620 and MV4-11 lysate | 1 h | > 3020 µM |
| O=C(O)c1cncc(-c2ccc3[nH]ccc3c2)c1 | Tumor necrosis factor receptor superfamily member 1A extracellular domain | binding, SPR OneStep | – | – | 112 µM |
| C[C@@H](O)[C@H](NC(=O)[C@H](CCC(N)=O)NC(=O)[C@@H]1CCCN1C(=O)[C@@H]1CCCN1C(=O)[C@@H]1CCCN1C(=O)[C@@H]1CCCN1C(=O)[C@@H](NC(=O)[C@H](Cc1ccccc1)NC(=O)[C@@H]1CCCN1C(=O)[C@H](CO)NC(=O)[C@@H]1CCCN1)[C@@H](C)O)C(=O)N1CCC[C@H]1C(=O)N[C@@H](CO)C(=O)N1CCC[C@H]1C(=O)O | GRB2 (Homo sapiens, UniProt P62993) | binding, NMR titration, item: nSH3 domain | – | together with: SOS1 proline-rich peptide | 950 µM |
| CCCN1CCN(c2ccc(-c3cncc(Cl)c3N3CCC4(CCNC4=O)CC3)cc2)CC1 | MED13 human | SILAC competition | LS174T-L5 lysate | – | 0.044 µM |

| SMILES | target | assay | system | conditions | Kd |
| --- | --- | --- | --- | --- | --- |
| O=C(O)CCn1cnc2ccccc21 | USP5 ZnF-UBD domain | – | – | – | > 1000 µM |
| O=C(Nc1nnc(-c2ccncc2)s1)C(F)(F)Cl | MAPK8 (Homo sapiens, UniProt P45983) | – | – | – | 16.8 µM |
| O=C(O)CCn1ccccc1=O | USP5 ZnF-UBD domain | – | – | – | > 1000 µM |
| O=C(O)c1cc(-c2ccc3[nH]ccc3c2)cc(CO)n1 | Tumor necrosis factor receptor superfamily member 1A extracellular domain | binding, SPR OneStep | – | – | 445 ± 29 µM |
| CC(=O)N1c2ccc(-c3ccc(C(=O)O)cc3)cc2[C@H](Nc2ccc(Cl)cc2)C[C@@H]1C | elongin C (Spodoptera frugiperda, UniProt A0A2H1WSX9+A0A9R0EEM2) | ternary complex formation, degrader, AlphaLISA | – | – | > 0.5 µM |
| Nc1nc(-c2ccc(Cl)c(S(N)(=O)=O)c2)cs1 | CA5B | thermal shift | – | pH 7.0, 25 °C | 0.63 µM |
| O=C(O)c1ccc(-c2ccc(CO)cc2F)cn1 | Tumor necrosis factor receptor superfamily member 1A extracellular domain | SPR OneStep | – | immobilized target | 920 ± 30 µM |
| O=C(O)Cn1ccc2ccccc2c1=O | USP5 ZnF-UBD domain | – | – | – | > 1000 µM |
| Nc1ccc(-c2cc(CO)nc(C(=O)O)c2)cc1 | Tumor necrosis factor receptor superfamily member 1A extracellular domain | binding, SPR OneStep | – | – | 868 ± 2 µM |
| C/C=C1\NC(=O)[C@H]2CSSCC/C=C/[C@H](CC(=O)N[C@H](C(C)C)C(=O)N2)OC(=O)[C@H](C(C)C)NC1=O | GATD3 | inhibitor, competition pulldown | SW620 and MV4-11 lysate | 1 h | > 30.2 µM |
| CC(=O)Nc1ccc(S(=O)(=O)N2CCN(CC(O)COc3ccc4ccccc4c3)CC2)cc1 (stereo not shown) | SCN8A C-terminal domain | SPR | PBS with 0.005% Tween-20 and 2% DMSO | 25 °C, immobilised C-terminal domain | 3.96 ± 0.1 µM |
| O=C(C[C@@H](C(F)F)n1ccc(F)n1)N1CCC(O)(Cn2cnc3c(cnn3-c3ccc(F)cc3)c2=O)CC1 | USP7 (Homo sapiens, UniProt Q93009, V517F) | isothermal titration calorimetry | – | USP7 V517F | 3.63 ± 1.48 µM |
| Nc1cc(F)ccc1NC(=O)c1ccc(CNC(=O)/C=C/c2cccnc2)cc1 | GATD3 | inhibitor, competition pulldown | SW620 and MV4-11 lysate | 1 h | > 30.2 µM |
| CSc1nc(C)c(CCC(=O)O)c(=O)[nH]1 | USP5 ZnF-UBD domain | – | – | – | > 1000 µM |
| NC(=O)c1cccc(-c2ccnc(C(=O)O)c2)c1 | Tumor necrosis factor receptor superfamily member 1A extracellular domain | binding, SPR | – | irregular sensorgram | 1000 ± 400 µM |
| CC(=O)N[C@H](C(=O)N[C@@H](CC(N)=O)C(=O)N[C@@H](CO)C(=O)N[C@H]1CSSC[C@@H](C(=O)NCC(=O)N[C@@H](CC(=O)O)C(=O)N[C@@H](CC(=O)O)C(=O)N[C@@H](CCCCNC(=O)CCCC(=O)NCCOCCOCCOCC(=O)NCCCC[C@H](NC(=O)COCCOCCOCCNC(=O)CCCC(=O)NCCCC[C@H](NC(=O)[C@H](CC(=O)O)NC(=O)[C@H](CC(=O)O)NC(=O)CNC(=O)[C@@H]2CSSC[C@H](NC(=O)[C@H](CO)NC(=O)[C@H](CC(N)=O)NC(=O)[C@@H](NC(C)=O)C(C)C)C(=O)N[C@@H](CC(C)C)C(=O)N[C@@H](CC(C)C)C(=O)N[C@@H](CC(C)C)C(=O)N3CCC[C@H]3C(=O)N[C@@H](CC(N)=O)C(=O)N[C@@H](CC(C)C)C(=O)N[C@@H](CC(C)C)C(=O)NCC(=O)N2)C(=O)N[C@@H](CCCCNC(=O)CCCC[C@@H]2SC[C@@H]3NC(=O)N[C@@H]32)C(N)=O)C(=O)NCc2cn(-c3cc(C(=O)NCCCCCC(=O)NCCCCCC(=O)NCCCCCC(=O)NCCCCCC(=O)NCCCCCC(=O)NCCCCCC(=O)NCc4cn(CCCC[C@H](NC(=O)N[C@@H](CCC(=O)O)C(=O)O)C(=O)O)nn4)cc(C(=O)NCCCCCC(=O)NCCCCCC(=O)NCCCCCC(=O)NCCCCCC(=O)NCCCCCC(=O)NCCCCCC(=O)NCc4cn(CCCC[C@H](NC(=O)N[C@@H](CCC(=O)O)C(=O)O)C(=O)O)nn4)c3)nn2)C(=O)N[C@@H](CCCCNC(=O)CCCC[C@@H]2SC[C@@H]3NC(=O)N[C@@H]32)C(N)=O)NC(=O)CNC(=O)[C@H](CC(C)C)NC(=O)[C@H](CC(C)C)NC(=O)[C@H](CC(N)=O)NC(=O)[C@@H]2CCCN2C(=O)[C@H](CC(C)C)NC(=O)[C@H](CC(C)C)NC(=O)[C@H](CC(C)C)NC1=O)C(C)C | human FcγRI | bead phagocytosis, ternary complex model fit | – | together with: PSMA 80 pM, FcγRI 800 pM | 0.01 µM |
| Nc1ncnc2c1ncn2[C@@H]1O[C@H](COP(=O)(O)OP(=O)(O)O)[C@@H](O)[C@H]1O | CKMT1A (Homo sapiens, UniProt P12532) | microscale thermophoresis | – | pH 8.5, together with: creatine 10 mM + nitrate 50 mM | 307 ± 194 µM |
| O=C(NO)c1cnc(NC2(c3ccccc3)CC2)nc1 | HDAC5 (Homo sapiens, UniProt Q9UQL6) | inhibitor, competition pulldown | SW620 and MV4-11 lysate | 1 h | > 30.2 µM |
| O=C(O)c1cc(-c2ccc3[nH]ccc3c2)ccn1 | Tumor necrosis factor receptor superfamily member 1A extracellular domain | binding, SPR OneStep | – | – | 576 ± 11 µM |
| CCCCOc1ccc(CC(=O)NO)cc1 | GATD3 | inhibitor, competition pulldown | SW620 and MV4-11 lysate | 1 h | 1.59 µM |
| Nc1ncnc2c1ncn2[C@@H]1O[C@H](COP(=O)(O)OP(=O)(O)OP(=O)(O)O)[C@@H](O)[C@H]1O | CKMT1A (Homo sapiens, UniProt P12532, E265Q) | microscale thermophoresis | – | pH 8.5, E227Q mutant, no substrate | 13 ± 4 µM |
